# Measured values collected from several papers.
# Lines come from different studies, so protocols differ. Numbers after ± are the reported error.
SMILES,assay,system,setting,scale,measurement,value
CCCCC1=NC2(CCCC2)C(=O)N1Cc1ccc(-c2ccccc2S(=O)(=O)Nc2noc(C)c2C)c(COCC)c1,,"healthy adult volunteers, plasma","oral, 100 mg, single dose, fasted, crushed tablet",,Tmax,3.25 h
COC(=O)C(Cc1cccc(OC)c1C)NC(=O)CNCc1ccccc1 (stereo not shown),,beagle dog,1 µM,,half-life,> 3 h
CCO[C@H]1CCN(Cc2c(OC)cc(C)c3[nH]ccc23)[C@H](c2ccc(C(=O)O)cc2)C1,,"human moderate hepatic impairment, plasma","oral, 200 mg single dose, median",,total half-life,23 h
Fc1ccc([C@@H]2CCNC[C@H]2COc2ccc3c(c2)OCO3)cc1,,"human, CYP2D6 normal metabolizers, plasma","oral, 20 mg, steady state",,peak-trough fluctuation,78%
CC[C@H](C)[C@@H]1NC(=O)[C@@](C)(NC(=O)[C@H](CCCNC(=N)N)NC(=O)[C@H](CC(C)C)NC(=O)[C@@H](NC(=O)[C@H](CCC(N)=O)NC(=O)[C@H](CC(C)C)NC(C)=O)[C@@H](C)O)CCCC=CCCC[C@@](C)(C(=O)N[C@@H](CC(C)C)C(=O)N[C@@H](Cc2ccc3ccccc3c2)C(N)=O)NC(=O)[C@H](CCCNC(=N)N)NC(=O)[C@H](CCC(N)=O)NC1=O,,BALB/c mouse,"intravenous, 5 mg/kg",,Vss,0.0693 L/kg
Cc1ccc(CCC(=O)Nc2nnc(S(N)(=O)=O)s2)cc1,,"BALB/c mice, male, plasma","oral, 20 mg/kg",,volume of distribution,31.2 L/kg
CCCC1CCC(c2ccc(-c3ccc(F)c(F)c3)cc2)CC1 (stereo not shown),measured: compound,"human pregnant women, male fetuses, cord serum","dose not given, paired maternal-cord samples, mean",,concentration,1 ng/mL
O=C(O)CCCCCCCCC(=O)O,,"human, plasma",endogenous baseline diurnal,,daily mean concentration,41.5 ± 4.6 nM
CCOc1c([C@H](C)n2nc(C)c3c(N)ncnc32)cc(Cl)c(F)c1[C@@H]1CNC(=O)C1,measured: QRS ≤100 ms,previously treated B-cell malignancy,"oral, 20 mg once daily, baseline below thresholds",,patients,96.4%
N#Cc1ccc2c(c1)[C@H]1CCCN(C(=O)c3ccc4[nH]cnc4c3)[C@H]1C2,,human,"160 mg, end of trial",relative to: baseline,ACTH level change,0.4 pmol/L
CC(C)NCCCC[C@@H]1NC(=O)[C@H](Cc2ccc(O)cc2)NC(=O)[C@H](Cc2ccccc2)NC(=O)CC[C@H](C(=O)N[C@@H](CCCCNC(C)C)C(=O)N[C@@H](CCCCNC(=O)[C@H](CCC(=O)O)NC(=O)[C@H](CCC(=O)O)NC(=O)[C@H](CCC(=O)O)NC(=O)CN2CCN(CC(=O)O)CCN(CC(=O)O)CCN(CC(=O)O)CC2)C(N)=O)NC(=O)CNC(=O)[C@H](Cc2ccc3ccccc3c2)NC(=O)[C@@H](CCCNC(=N)N)NC1=O [gallium-68 labelled],,"mouse with PC-3 xenograft, blood","intravenous, 1 h",,tissue uptake,0.56 %ID/g
FC(F)(F)c1ccc(CNc2ccc(Cc3c[nH]c4ncc(Cl)cc34)cn2)cn1,measured: peripheral oedema,"human, advanced solid tumours, all patients","oral, 1000 mg/day, any grade",,treatment-related adverse events,10%
O=[N+]([O-])c1cnc2ccc(F)cc2c1O,haemolysis,sheep erythrocytes,"1 h, pH 7.5",,HC50,> 128 µg/mL
CC(C)[C@H](N)C(=O)NCCCS(=O)(=O)O,,"human both sexes, plasma","oral, 340 mg BID days 8-13, QD day 14, day 14, fed capsule",,AUC(0-12),13800 ng·h/mL
Cc1nc(-c2ccc(OCC(C)C)c(C#N)c2)sc1C(=O)O,,"healthy Chinese subjects, fasted","oral, 40 mg single dose",,subjects with grade 2 AEs,0%
Cc1cc(Nc2ncnc3ccc(NC4=NC(C)(C)CO4)cc23)ccc1Oc1ccn2ncnc2c1,,"human, plasma","oral, 300 mg, day 1, single dose alone",,"Cmax, mean",350 ng/mL
O=C(c1cccnc1-c1ccncc1)N1CCC(O)(Cc2ccccc2)CC1,,"healthy Japanese adults, plasma","oral, 200 mg twice daily, day 14",,CL/F,277 L/h
CC#CC(=O)N1CC[C@@H](n2c(=O)n(-c3ccc(Oc4ccccc4)cc3)c3c(N)ncnc32)C1,,"human, fasting, plasma","oral, 320 mg once daily, cycle 1 day 28",,"Tmax, median",3 h
O=S(=O)(NCC(O)c1c(F)cccc1Cl)c1cccc(Cl)c1O (stereo not shown),"colloidal aggregate formation, dynamic light scattering",50 mM potassium phosphate buffer,"200 µM, pH 7.0, 1% DMSO",higher = more aggregation,DLS scattered light intensity,208000 counts/s
C#Cc1cccc(Nc2ncnc3cc(OCCOC)c(OCCOC)cc23)c1,UPLC-MS/MS,"Wistar rat, male, plasma","oral, dose not given, four weeks, added: PPA 1000 mg/kg, high dose",relative to: control,AUC(0-72h) increase,78%
CCCCOc1nc(N)c2c(n1)N(Cc1cccc(CN3CCCC3)c1)CC(=O)N2,,human,added: vorinostat,relative to: compound alone,"Cmax, AUCinf, Tmax, t1/2",no effect
COc1ccc(Cl)cc1C(=O)NCCc1ccc(S(=O)(=O)NC(=O)NC2CCCCC2)cc1 [carbon-11 labelled],population PK model,humans,fixed pancreas and spleen ratios,,liver to blood rate constant,30 h⁻¹
NC1(C(=O)N[C@@H](CCO)c2ccc(Cl)cc2)CCN(c2nc[nH]c3nccc2-3)CC1,,metastatic CRPC patients,"320 mg b.i.d., any grade, treatment-related, added: enzalutamide 160 mg daily",,incidence of Neutropenia,0%
O=S(=O)(NC(C1CC1)C1(CO)CCCO1)c1cccc(Cl)c1O (stereo not shown),"colloidal aggregate formation, dynamic light scattering",50 mM potassium phosphate buffer,"200 µM, pH 7.0, 1% DMSO",higher = more aggregation,DLS scattered light intensity,326000 counts/s
CNC(=O)c1ccc(-c2cnc3ncc(Cc4ccc5ncccc5c4)n3n2)cc1F,"CTCAE v4.0, any causality",human cancer patients,"oral, 600 mg twice daily, expansion cohort at RP2D",,non-cardiac chest pain incidence (all grades),3%
C[C@@H](Oc1ccc(S(C)(=O)=O)cc1C(=O)N1C[C@@H]2C[C@]2(c2cc(C(F)(F)F)on2)C1)C(F)(F)F,,"young healthy humans, urine","oral, 10 mg once daily, 0 to 24 h, multiple dosing",,fraction excreted in urine at steady state,7.06%
Cc1ccc([C@@H]2O[C@H](CO)[C@@H](O)[C@H](O)[C@H]2O)cc1Cc1ccc(-c2ccc(F)cc2)s1,,Japanese type 2 diabetes patients,"25 mg, day 6, 24 h urine collection",relative to: baseline,urinary potassium excretion change,-4.75 mEq
Cc1cc2c(cc1CCNS(=O)(=O)c1ccsc1C(=O)O)CCCC2,"colloidal aggregate formation, dynamic light scattering",50 mM potassium phosphate buffer,"200 µM, pH 7.0, 1% DMSO",higher = more aggregation,DLS scattered light intensity,411000 counts/s
CCCCCCCOc1ccc(CCC(N)(CO)CO)cc1C(F)(F)F.Cl,,"healthy men, urine","oral, 0.5 mg once daily, day 21, fed state",relative to: dose,urinary excretion,0.126%
Cc1ccc(O)c(-n2nc3ccccc3n2)c1,,human aged 21-60 years,"concentration not given, foundation, 95th percentile",,daily dermal exposure dose,496 ng/kg/day
O=C(Nc1nc2cccc(-c3ccc(CN4CCS(=O)(=O)CC4)cc3)n2n1)C1CC1,measured: nervous system disorders,human rheumatoid arthritis patients,"oral, 150 mg once daily, 4 weeks, regardless of relatedness",,treatment-emergent adverse events,0%
CCCCOC(=O)N1CCN(C(=O)[C@H](CP(=O)(O)O)NC(=O)c2cc(N3CC[C@H](OC)C3)nc(-c3ccccc3)n2)CC1,measured: Urea,"human, blood","16 mg, 24 h",,change from baseline,-0.27 ± 1.07 mmol/L
Cc1c(-c2ccc(N3CCc4cccc(C(=O)Nc5nc6ccccc6s5)c4C3)nc2C(=O)O)cnn1CC12CC3(C)CC(C)(C1)CC(OCCNCC[C@H](O)CO)(C3)C2,,"beagle dog, anaesthetised","intravenous infusion, 0.3 mg/kg/min, 75 min",relative to: vehicle,PR interval change,-3 ms
C=CCN1CC(=O)N2[C@@H](Cc3ccc(O)cc3F)C(=O)N(Cc3cccc(N4CC(N5CCN(CC)CC5)C4)n3)C[C@@H]2N1C(=O)NCc1ccccc1,measured: Malaise,advanced solid tumour patients,"oral, 100 mg twice daily, expansion part, any grade",,treatment-related adverse events,0%
Cn1cc(Nc2nccc(-c3ccc4c(c3)CN(C3COC3)CC[C@H]4NC(=O)c3cn(C(C)(C)C)nn3)n2)cn1,measured: CD8+ T cell count,"human, clinical trial, whole blood","150 mg twice daily, follow-up",,percent change from baseline,0.36%
CO[C@H]1C[C@@H]2CC[C@@H](C)[C@@](O)(O2)C(=O)C(=O)N2CCCC[C@H]2C(=O)O[C@H]([C@H](C)C[C@@H]2CC[C@@H](O)[C@H](OC)C2)CC(=O)[C@H](C)/C=C(\C)[C@@H](O)[C@@H](OC)C(=O)[C@H](C)C[C@H](C)/C=C/C=C/C=C/1C,,healthy adult horses,"intravenous, 0.06 mg/kg, 10 h",,rectal temperature,37.4 ± 0.3 °C
CCc1cc(C(=O)NC)c2nccc(N3CCc4c(cc(Cn5ccnc5)cc4-c4cn(C)nc4C(F)(F)F)C3=O)c2c1,,Sprague Dawley rats,"oral, 100 mg/kg twice daily, 7 days",,blood HGB,132 ± 7.57 g/L
O=c1[nH]c(=O)n([C@@H]2O[C@H](CO)[C@@H](O)[C@@H]2F)cc1CCCCC[18F],,"nude mice, tumour-bearing, blood","dose not given, 2 h",,blood radioactivity remaining,0.16 ± 0.05 %ID/g
C[C@@H](N)C1CCN(S(=O)(=O)c2cccc3cnccc23)CC1,,healthy volunteers,"25 mg and 250 mg combined, fasted",,participants with serious TEAEs,0%
CC[C@H](C)[C@H](NC(=O)[C@H](Cc1ccccc1)NC(=O)[C@H](CCC(=O)O)NC(=O)[C@H](CCCCNC(=O)COCCOCCNC(=O)COCCOCCNC(=O)CC[C@H](NC(=O)CCCCCCCCCCCCCCCCC(=O)O)C(=O)O)NC(=O)[C@H](C)NC(=O)[C@H](C)NC(=O)[C@H](CCC(N)=O)NC(=O)CNC(=O)[C@H](CCC(=O)O)NC(=O)[C@H](CC(C)C)NC(=O)[C@H](Cc1ccc(O)cc1)NC(=O)[C@H](CO)NC(=O)[C@H](CO)NC(=O)[C@@H](NC(=O)[C@H](CC(=O)O)NC(=O)[C@H](CO)NC(=O)[C@@H](NC(=O)[C@H](Cc1ccccc1)NC(=O)[C@@H](NC(=O)CNC(=O)[C@H](CCC(=O)O)NC(=O)C(C)(C)NC(=O)[C@@H](N)Cc1cnc[nH]1)[C@@H](C)O)[C@@H](C)O)C(C)C)C(=O)N[C@@H](C)C(=O)N[C@@H](Cc1c[nH]c2ccccc12)C(=O)N[C@@H](CC(C)C)C(=O)N[C@H](C(=O)N[C@@H](CCCNC(=N)N)C(=O)NCC(=O)N[C@@H](CCCNC(=N)N)C(=O)NCC(=O)O)C(C)C,"QT interval corrected for heart rate, 12-lead Holter ECG",healthy human subjects,"subcutaneous, 1.5 mg once weekly, 26 h post-dose, steady state","relative to: placebo, time-matched baseline",placebo-subtracted change in QTcI,-6.1 ms
CC(=O)NC[C@H]1CN(c2ccc(N3CCOCC3)c(F)c2)C(=O)O1,,human whole blood,"concentration not given, 24 h, 4 °C",,deviation from nominal concentration,0.9%
COc1ccnc(C(=O)N[C@H]2COC(=O)[C@H](Cc3ccccc3)[C@@H](O)[C@H](C)OC2=O)c1O,soil adsorption,soil,"pH 6.9, organic carbon 0.8 %",,Freundlich coefficient KF,23 mL/g
OC[C@H]1O[C@@H](c2ccc(F)c(Cc3cc4ccccc4s3)c2)[C@H](O)[C@@H](O)[C@@H]1O,,Japanese type 1 diabetes patients,"oral, 100 mg/day, day 12",,hypoglycaemia adverse events,1 % patients
COc1ccc([C@@H](O)c2cc(-c3ncnc4cc(N5CCOCC5)ccc34)c(F)cc2Cl)nn1,,locally advanced rectal cancer patients,"150 mg, added: capecitabine and radiotherapy",,drug-related nausea incidence,33%
CC(C)(C(=O)N1CCOc2c(C#N)cncc2C1)C(F)F,measured: Cardiac disorders,human,"oral, 15 mg twice daily, 14 days, multiple ascending dose",,subjects with adverse event,0%
O=C(O)CCC(=O)O.[2H]C([2H])([2H])Oc1cc(C)c2[nH]ccc2c1CN1CC[C@@H](C2CC2)C[C@H]1c1ccc(C(=O)O)cc1,multiple ascending dose,healthy Chinese subjects,50 mg twice daily,,subjects with TEAE Diarrhea,0%
Cn1ncc(S(=O)(=O)NCc2ccccc2SC(F)(F)F)c1C(=O)O,"colloidal aggregate formation, dynamic light scattering",50 mM potassium phosphate buffer,"200 µM, pH 7.0, 1% DMSO",higher = more aggregation,DLS scattered light intensity,1.41e+06 counts/s
Cc1noc(C)c1-c1cc(C(O)(c2ccccn2)c2ccccn2)c2nc(C3CC3)[nH]c2c1,,"human male patients, fasted, plasma","oral, 4 mg once daily, cycle 1 day 8",,Ctau,142 ng/mL
O=S(=O)(NCCCOc1ccccc1F)c1cc(Cl)cc(Cl)c1O,"colloidal aggregate formation, dynamic light scattering",50 mM potassium phosphate buffer,"200 µM, pH 7.0, 1% DMSO",higher = more aggregation,DLS scattered light intensity,666000 counts/s
c1ccc(-c2nc(N3CCC(c4ccccn4)C3)c3ccccc3n2)nc1 (stereo not shown),,"female Balb/c mice, blood","intravenous, 2 mg/kg, 4 h, mean, added: 1-aminobenzotriazole co-dosed",,blood concentration,767 ng/mL
Nc1ccn([C@@H]2O[C@H](CO)[C@@H](O)C2(F)F)c(=O)n1,measured: dFdU,"human, plasma","intravenous, 1000 mg/m^2, added: before paricalcitol",,"Tmax, median",1.25 h
COc1ccnc(C(=O)NC(CO)C(=O)O)c1O (racemic),soil adsorption,tested soils,geometric mean,,Freundlich coefficient KF,7.75 mL/g
CCc1c(-c2ccccc2)c(-c2ccccc2)nn1-c1ccccc1-c1cccc(OCC(=O)O)c1,,"male Sprague-Dawley rat, testis","oral, 10 mg/kg, 8 h",,concentration,185 ng/g
C=CC(=O)Nc1cc(Nc2nccc(-c3cn(C)c4ccccc34)n2)c(OC)cc1N(C)CCN(C)C,,human plasma,"24 h, storage stability, LLOQ sample",,recovery,53.5%
Cc1ccc(Sc2ccccc2N2CCNCC2)c(C)c1,measured: Headache,healthy adult men,"oral, 5 mg single dose, 10 day",,participants with TEAE,0%
